Measurements of several laboratories.
Every numbered part comes from another study and shows a few of its results, in no order.
Sequence of UniProt Q9UQM7 (whole entry, looked up): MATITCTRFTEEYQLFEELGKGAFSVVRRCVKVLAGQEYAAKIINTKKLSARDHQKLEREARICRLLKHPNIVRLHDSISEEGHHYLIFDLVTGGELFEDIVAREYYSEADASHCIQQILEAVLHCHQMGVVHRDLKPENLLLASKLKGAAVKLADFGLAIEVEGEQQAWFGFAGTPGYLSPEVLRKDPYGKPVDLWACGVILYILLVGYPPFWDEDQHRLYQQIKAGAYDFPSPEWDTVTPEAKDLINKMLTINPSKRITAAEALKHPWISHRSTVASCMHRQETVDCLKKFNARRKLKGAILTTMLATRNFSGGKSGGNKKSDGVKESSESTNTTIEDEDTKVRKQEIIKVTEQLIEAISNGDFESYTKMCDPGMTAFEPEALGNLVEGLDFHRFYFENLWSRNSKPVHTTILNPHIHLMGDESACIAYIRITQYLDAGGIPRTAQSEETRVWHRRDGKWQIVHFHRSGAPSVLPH
Sequence of UniProt P21802 (whole entry, looked up): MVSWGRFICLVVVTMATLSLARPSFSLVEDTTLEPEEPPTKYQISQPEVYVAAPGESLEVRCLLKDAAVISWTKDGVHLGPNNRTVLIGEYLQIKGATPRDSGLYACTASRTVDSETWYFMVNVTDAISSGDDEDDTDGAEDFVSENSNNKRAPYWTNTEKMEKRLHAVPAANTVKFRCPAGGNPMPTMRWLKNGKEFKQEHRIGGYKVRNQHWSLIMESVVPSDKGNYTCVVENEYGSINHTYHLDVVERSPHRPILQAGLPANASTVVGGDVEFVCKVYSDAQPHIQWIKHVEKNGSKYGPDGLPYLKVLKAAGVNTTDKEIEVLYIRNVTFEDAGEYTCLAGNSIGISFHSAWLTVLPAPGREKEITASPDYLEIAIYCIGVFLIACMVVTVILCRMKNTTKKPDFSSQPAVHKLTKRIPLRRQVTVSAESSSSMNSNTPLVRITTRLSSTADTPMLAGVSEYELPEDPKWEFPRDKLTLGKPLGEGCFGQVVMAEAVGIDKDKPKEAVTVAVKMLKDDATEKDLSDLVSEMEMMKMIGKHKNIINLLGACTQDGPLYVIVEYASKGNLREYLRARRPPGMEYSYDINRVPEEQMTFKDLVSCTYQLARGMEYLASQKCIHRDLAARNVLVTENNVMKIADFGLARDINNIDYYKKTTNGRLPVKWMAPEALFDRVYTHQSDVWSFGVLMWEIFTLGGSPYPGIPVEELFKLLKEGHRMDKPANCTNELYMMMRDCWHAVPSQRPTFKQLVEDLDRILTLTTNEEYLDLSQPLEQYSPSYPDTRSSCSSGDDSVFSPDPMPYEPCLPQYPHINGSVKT
Sequence of UniProt P04049 (whole entry, looked up): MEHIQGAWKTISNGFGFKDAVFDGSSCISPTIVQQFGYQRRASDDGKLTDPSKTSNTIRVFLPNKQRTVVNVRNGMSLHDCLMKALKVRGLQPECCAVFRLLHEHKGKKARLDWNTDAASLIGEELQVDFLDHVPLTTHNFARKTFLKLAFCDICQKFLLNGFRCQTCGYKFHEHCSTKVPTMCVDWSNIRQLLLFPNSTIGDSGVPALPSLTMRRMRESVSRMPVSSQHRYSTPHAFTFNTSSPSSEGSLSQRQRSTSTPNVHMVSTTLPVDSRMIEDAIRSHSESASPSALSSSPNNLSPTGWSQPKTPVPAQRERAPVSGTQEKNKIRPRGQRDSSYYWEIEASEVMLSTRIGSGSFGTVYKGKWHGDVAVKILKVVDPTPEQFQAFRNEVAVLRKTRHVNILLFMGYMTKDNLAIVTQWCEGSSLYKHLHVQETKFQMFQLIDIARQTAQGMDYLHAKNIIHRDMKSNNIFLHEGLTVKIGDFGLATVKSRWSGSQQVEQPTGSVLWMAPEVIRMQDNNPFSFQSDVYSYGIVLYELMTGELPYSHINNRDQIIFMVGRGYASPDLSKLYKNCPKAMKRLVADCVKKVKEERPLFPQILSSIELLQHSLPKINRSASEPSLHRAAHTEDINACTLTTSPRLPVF
Sequence of UniProt Q13177 (whole entry, looked up): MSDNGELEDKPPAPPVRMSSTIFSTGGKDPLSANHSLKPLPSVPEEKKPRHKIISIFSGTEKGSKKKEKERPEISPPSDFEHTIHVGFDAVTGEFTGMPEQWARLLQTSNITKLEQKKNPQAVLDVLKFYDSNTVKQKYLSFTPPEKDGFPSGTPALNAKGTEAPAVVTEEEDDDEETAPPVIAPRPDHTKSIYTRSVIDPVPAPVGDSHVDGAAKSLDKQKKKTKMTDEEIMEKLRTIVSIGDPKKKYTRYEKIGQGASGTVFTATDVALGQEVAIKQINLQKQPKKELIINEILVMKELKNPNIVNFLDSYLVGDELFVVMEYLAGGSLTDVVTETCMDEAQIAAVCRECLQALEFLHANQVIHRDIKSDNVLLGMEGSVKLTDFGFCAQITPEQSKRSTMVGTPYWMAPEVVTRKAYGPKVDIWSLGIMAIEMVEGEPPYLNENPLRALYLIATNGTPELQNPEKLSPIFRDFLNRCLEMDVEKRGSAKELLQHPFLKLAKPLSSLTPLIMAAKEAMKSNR
Sequence of UniProt P54762 (whole entry, looked up): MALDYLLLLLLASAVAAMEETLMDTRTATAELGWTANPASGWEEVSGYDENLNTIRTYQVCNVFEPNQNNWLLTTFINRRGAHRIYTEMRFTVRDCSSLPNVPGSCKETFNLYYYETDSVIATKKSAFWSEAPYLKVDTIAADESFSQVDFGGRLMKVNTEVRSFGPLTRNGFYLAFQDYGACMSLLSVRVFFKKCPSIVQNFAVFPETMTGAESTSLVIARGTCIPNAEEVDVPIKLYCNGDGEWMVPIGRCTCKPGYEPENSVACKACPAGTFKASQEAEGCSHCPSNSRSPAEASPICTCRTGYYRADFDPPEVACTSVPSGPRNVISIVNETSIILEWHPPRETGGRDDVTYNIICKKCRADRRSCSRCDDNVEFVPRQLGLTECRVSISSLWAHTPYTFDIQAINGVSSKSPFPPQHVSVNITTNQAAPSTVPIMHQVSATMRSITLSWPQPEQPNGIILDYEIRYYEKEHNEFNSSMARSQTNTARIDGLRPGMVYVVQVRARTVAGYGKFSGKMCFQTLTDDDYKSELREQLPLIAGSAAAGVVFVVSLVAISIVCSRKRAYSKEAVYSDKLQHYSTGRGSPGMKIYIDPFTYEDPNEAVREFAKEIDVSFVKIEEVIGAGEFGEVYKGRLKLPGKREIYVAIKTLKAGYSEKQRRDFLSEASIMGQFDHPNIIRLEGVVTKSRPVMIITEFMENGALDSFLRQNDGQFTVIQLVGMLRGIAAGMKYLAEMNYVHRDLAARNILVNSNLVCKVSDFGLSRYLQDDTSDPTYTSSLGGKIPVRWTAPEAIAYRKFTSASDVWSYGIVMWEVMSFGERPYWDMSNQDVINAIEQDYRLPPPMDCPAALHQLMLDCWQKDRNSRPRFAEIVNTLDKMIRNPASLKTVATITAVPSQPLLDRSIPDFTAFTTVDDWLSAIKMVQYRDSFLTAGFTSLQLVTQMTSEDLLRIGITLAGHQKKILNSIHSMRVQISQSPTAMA
Sequence of UniProt Q9NRH2 (whole entry, looked up): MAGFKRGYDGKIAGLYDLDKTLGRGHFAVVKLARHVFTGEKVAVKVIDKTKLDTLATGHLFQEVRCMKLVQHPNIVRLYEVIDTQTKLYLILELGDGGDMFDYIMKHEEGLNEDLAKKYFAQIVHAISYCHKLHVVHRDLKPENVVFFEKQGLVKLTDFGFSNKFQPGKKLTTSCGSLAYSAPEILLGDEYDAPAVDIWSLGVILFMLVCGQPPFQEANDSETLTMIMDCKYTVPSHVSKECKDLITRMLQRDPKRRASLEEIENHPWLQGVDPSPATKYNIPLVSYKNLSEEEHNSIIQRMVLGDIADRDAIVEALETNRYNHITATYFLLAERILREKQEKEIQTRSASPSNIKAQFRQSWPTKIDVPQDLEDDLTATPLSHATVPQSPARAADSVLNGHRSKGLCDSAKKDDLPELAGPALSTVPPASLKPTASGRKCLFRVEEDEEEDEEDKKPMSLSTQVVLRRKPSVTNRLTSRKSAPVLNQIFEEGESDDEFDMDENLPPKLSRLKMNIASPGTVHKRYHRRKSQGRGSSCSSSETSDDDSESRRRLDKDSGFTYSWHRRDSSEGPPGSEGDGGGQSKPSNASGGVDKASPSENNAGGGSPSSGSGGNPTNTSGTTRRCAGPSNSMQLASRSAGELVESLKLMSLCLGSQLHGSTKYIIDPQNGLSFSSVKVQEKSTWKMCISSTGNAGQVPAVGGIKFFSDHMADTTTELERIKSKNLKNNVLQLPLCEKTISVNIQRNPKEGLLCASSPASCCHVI
Sequence of UniProt P49760 (whole entry, looked up): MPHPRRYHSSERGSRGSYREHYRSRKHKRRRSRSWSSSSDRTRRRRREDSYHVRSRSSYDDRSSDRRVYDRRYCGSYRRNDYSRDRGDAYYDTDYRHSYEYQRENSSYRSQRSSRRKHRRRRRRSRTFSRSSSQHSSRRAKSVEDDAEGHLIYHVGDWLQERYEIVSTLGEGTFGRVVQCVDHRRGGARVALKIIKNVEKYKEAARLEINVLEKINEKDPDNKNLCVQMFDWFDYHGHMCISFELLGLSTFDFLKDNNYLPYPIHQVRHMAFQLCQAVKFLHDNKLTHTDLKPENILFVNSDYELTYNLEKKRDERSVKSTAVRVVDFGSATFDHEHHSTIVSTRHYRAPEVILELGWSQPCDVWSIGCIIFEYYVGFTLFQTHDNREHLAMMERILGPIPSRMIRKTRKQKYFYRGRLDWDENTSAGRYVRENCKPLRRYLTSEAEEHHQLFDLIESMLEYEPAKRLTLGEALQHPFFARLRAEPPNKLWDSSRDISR

Series 1
Structure (SMILES): CN(C)C[C@H]1CCn2c(c(C3=C(c4cn(C)c5ccccc45)C(=O)NC3=O)c3ccccc32)C1
Effect on: enzyme activity
Mode: inhibitor
Concentration: 0.5 µM
Baseline: control
| target | remaining activity [%] |
| --- | --- |
| FLT1 (Homo sapiens, UniProt P17948) | 91.3 |
| JAK1 (Homo sapiens, UniProt P23458) | 108 |
| IGF1R (Homo sapiens, UniProt P08069) | 101 |
| RPS6KA3 (Homo sapiens, UniProt P51812) | 1.81 |
| EPHA6 (Homo sapiens, UniProt Q9UF33) | 100 |
| PRKCZ (Homo sapiens, UniProt Q05513) | 31 |
| SGK2 (Homo sapiens, UniProt Q9HBY8) | 71.7 |
| TYRO3 (Homo sapiens, UniProt Q06418) | 99.3 |
| CLK2 (Homo sapiens, UniProt P49760) | 85.9 |
| MUSK (Homo sapiens, UniProt O15146) | 85.6 |
| TEC (Homo sapiens, UniProt P42680) | 108 |
| EPHA2 (Homo sapiens, UniProt P29317) | 102 |
| CAMK1 (Homo sapiens, UniProt Q14012) | 105 |
| MAP3K20 (Homo sapiens, UniProt Q9NYL2) | 87.3 |
| CSNK1D (Homo sapiens, UniProt P48730) | 101 |
| SIK2 (Homo sapiens, UniProt Q9H0K1) | 88.8 |
| PAK6 (Homo sapiens, UniProt Q9NQU5) | 114 |
| CAMKK1 (Homo sapiens, UniProt Q8N5S9) | 116 |
| PAK1 (Homo sapiens, UniProt Q13153) | 99.8 |
| CSNK1E (Homo sapiens, UniProt P49674) | 99.7 |
| SRPK1 (Homo sapiens, UniProt Q96SB4) | 103 |
| CLK1 (Homo sapiens, UniProt P49759) | 105 |

Series 2
SMILES: NS(=O)(=O)c1cc(NC(=O)C2(c3ccccc3Cl)CC2)ccc1Oc1cccc(Cl)c1
Effect on: cell-free assay
Method: competition with immobilised ligand
Concentration: 1 µM
| target | remaining binding [%] |
| --- | --- |
| PRKCD (Homo sapiens, UniProt Q05655) | 89 |
| TNK2 (Homo sapiens, UniProt Q07912) | 82 |
| CSNK1A1 (Homo sapiens, UniProt P48729) | 100 |
| PKN1 (Homo sapiens, UniProt Q16512) | 100 |
| FGFR2 (Homo sapiens, UniProt P21802) | 100 |
| CAMK2A (Homo sapiens, UniProt Q9UQM7) | 97 |
| NLK (Homo sapiens, UniProt Q9UBE8) | 68 |
| MAP2K7 (Homo sapiens, UniProt O14733) | 100 |
| DYRK1A (Homo sapiens, UniProt Q13627) | 90 |
| MAP3K11 (Homo sapiens, UniProt Q16584) | 79 |
| SRMS (Homo sapiens, UniProt Q9H3Y6) | 77 |
| TNIK (Homo sapiens, UniProt Q9UKE5) | 100 |
| PIKFYVE (Homo sapiens, UniProt Q9Y2I7) | 100 |
| Tyrosine-protein kinase ABL1, phosphorylated (ABL1, Homo sapiens, UniProt P00519, Q252H) | 71 |
| EGFR (Homo sapiens, UniProt P00533, del752-759) | 85 |
| EPHB1 (Homo sapiens, UniProt P54762) | 78 |
| SNRK (Homo sapiens, UniProt Q9NRH2) | 100 |
| TNK1 (Homo sapiens, UniProt Q13470) | 100 |
| SBK3 (Homo sapiens, UniProt P0C264) | 74 |
| MAP2K2 (Homo sapiens, UniProt P36507) | 89 |
| RAF1 (Homo sapiens, UniProt P04049) | 81 |
| PIK3C2B (Homo sapiens, UniProt O00750) | 100 |
| PAK2 (Homo sapiens, UniProt Q13177) | 100 |
| NTRK2 (Homo sapiens, UniProt Q16620) | 100 |
| MAP3K14 (Homo sapiens, UniProt Q99558) | 100 |

Series 3
Target: Diamine acetyltransferase 1 (Homo sapiens, UniProt P21673)
Mode: inhibitor
Concentration: 10 µM
Baseline: control
Target sequence (P21673 1-171): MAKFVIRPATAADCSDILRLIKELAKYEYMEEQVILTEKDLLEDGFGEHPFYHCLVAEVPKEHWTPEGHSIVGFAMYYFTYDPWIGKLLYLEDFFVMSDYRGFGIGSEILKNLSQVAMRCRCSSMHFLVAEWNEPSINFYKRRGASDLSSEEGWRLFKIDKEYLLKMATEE
| Compound | remaining activity |
| --- | --- |
| COc1cc2c(c(OC)c1OC)C(=O)c1c(cc(C)c(O)c1OC)C2=O | 103% |
| OCc1ccc(O)cc1 | 95.4% |
| O=C(O)CC(=O)O | 91% |
| O=c1c(-c2ccc(O)cc2)coc2c([C@@H]3O[C@H](CO[C@@H]4OC[C@@H](O)[C@H](O)[C@H]4O)[C@@H](O)[C@H](O)[C@H]3O)c(O)ccc12 | 84% |
| N[C@@H](Cc1cnc[nH]1)C(=O)O | 105% |
| CC(C)(O)[C@H]1CC[C@@](C)([C@H]2[C@@H](O)C[C@@]3(C)[C@@H]4C[C@H](O[C@@H]5O[C@H](CO)[C@@H](O)[C@H](O)[C@H]5O)[C@H]5C(C)(C)[C@@H](O[C@@H]6OC[C@@H](O)[C@H](O)[C@H]6O)CC[C@@]56C[C@@]46CC[C@]23C)O1 | 102% |
| C[C@@H]1O[C@@H](O[C@H]2[C@H](O[C@H]3CC[C@@]4(C)[C@@H](CC[C@]5(C)[C@@H]4CC=C4[C@@H]6CC(C)(C)CC[C@]6(C(=O)O)CC[C@]45C)[C@]3(C)CO)OC[C@H](O)[C@@H]2O)[C@H](O)[C@H](O[C@@H]2O[C@H](CO)[C@@H](O[C@@H]3O[C@H](CO)[C@@H](O)[C@H](O)[C@H]3O)[C@H](O)[C@H]2O)[C@H]1O | 117% |
| O=C1CC(c2ccc(O)cc2)Oc2cc(O)cc(O)c21 (racemic) | 99.9% |
| COc1cc(O)cc(CCc2cccc(O)c2)c1 | 95.8% |
| CC1=CC[C@@H](C(C)(C)O)CC1 | 112% |
| C[C@H](Cc1ccc(O)c(O)c1)[C@@H](C)Cc1ccc(O)c(O)c1 | 108% |
| CCCCCCCC/C=C\CCCCCCCCCC(=O)O | 102% |
| O=C(O)/C=C/c1ccccc1O | 101% |
| N[C@@H](CO)C(=O)O | 91.8% |
| CC(=O)OCCC(C)CCC=C(C)C (stereo not drawn) | 82.2% |
| CCCCCCCC(=O)O | 85.3% |
| CCCCCCCCCCCCCCCCCC=O | 92.6% |

Series 4
Target: Calcium/calmodulin-dependent protein kinase type II subunit alpha (CAMK2A, Homo sapiens, UniProt Q9UQM7)
Effect on: enzyme activity
Mode: inhibitor
Concentration: 10 µM
| SMILES | inhibition [%] |
| --- | --- |
| O=C(OC[C@H]1O[C@@H](OC(=O)c2cc(O)c(O)c(OC(=O)c3cc(O)c(O)c(O)c3)c2)[C@H](OC(=O)c2cc(O)c(O)c(OC(=O)c3cc(O)c(O)c(O)c3)c2)[C@@H](OC(=O)c2cc(O)c(O)c(OC(=O)c3cc(O)c(O)c(O)c3)c2)[C@@H]1OC(=O)c1cc(O)c(O)c(OC(=O)c2cc(O)c(O)c(O)c2)c1)c1cc(O)c(O)c(OC(=O)c2cc(O)c(O)c(O)c2)c1 | 88 |
| Oc1cc(O)c2c(c1)O[C@H](c1ccc(O)c(O)c1)[C@H](O)[C@H]2c1c(O)cc(O)c2c1O[C@H](c1ccc(O)c(O)c1)[C@H](O)[C@H]2c1c(O)cc(O)c2c1O[C@H](c1ccc(O)c(O)c1)[C@H](O)C2 | 5 |
| CCCCCCCCCCCCCC(=O)O[C@H](CC(=O)[O-])C[N+](C)(C)C | 17 |
| CC1(C)[C@H](C(=O)O)CC[C@]1(C)C(=O)O | -32 |
| CCCCCCCCCCCCCCCCCCCCC(=O)O | -72 |
| CC1OCCC1=O (stereo not drawn) | -80 |
| CCCCCc1ccco1 | 16 |
| O=C(O)C1CCCCC1 | 6 |
| O=C(O)c1cccnc1 | 61 |
| C/C(=C\C(=O)OCCCCCCCCC(=O)O)C[C@@H]1OC[C@H](C[C@@H]2O[C@H]2[C@@H](C)[C@H](C)O)[C@@H](O)[C@H]1O | -7 |
| C1CCN2C[C@@H]3C[C@@H](CN4CCCC[C@@H]34)[C@H]2C1 | -8 |

For quick reference, copied from above (series 2):
| target | remaining binding [%] |
| --- | --- |
| CAMK2A (Homo sapiens, UniProt Q9UQM7) | 97 |
| NLK (Homo sapiens, UniProt Q9UBE8) | 68 |
| MAP2K7 (Homo sapiens, UniProt O14733) | 100 |
| DYRK1A (Homo sapiens, UniProt Q13627) | 90 |
| MAP3K11 (Homo sapiens, UniProt Q16584) | 79 |
| SRMS (Homo sapiens, UniProt Q9H3Y6) | 77 |
| TNIK (Homo sapiens, UniProt Q9UKE5) | 100 |
| PIKFYVE (Homo sapiens, UniProt Q9Y2I7) | 100 |
| Tyrosine-protein kinase ABL1, phosphorylated (ABL1, Homo sapiens, UniProt P00519, Q252H) | 71 |
| EGFR (Homo sapiens, UniProt P00533, del752-759) | 85 |
